Published values gathered from unrelated publications.
Numbered parts are unrelated; each lists some results of a single study. Substitutions count along the parent as printed.

Series 1
Target: CCNA2, cyclin fold, Cln2 fusion (human)
Method: yeast growth competition, sequencing
Medium: yeast
Notes: strong parent motif
Reference: not given
Direction: higher = stronger binding
Measurement: normalised enrichment score
Starting sequence: E2F1 docking peptide (human); PPVKRRLDFETDH; partner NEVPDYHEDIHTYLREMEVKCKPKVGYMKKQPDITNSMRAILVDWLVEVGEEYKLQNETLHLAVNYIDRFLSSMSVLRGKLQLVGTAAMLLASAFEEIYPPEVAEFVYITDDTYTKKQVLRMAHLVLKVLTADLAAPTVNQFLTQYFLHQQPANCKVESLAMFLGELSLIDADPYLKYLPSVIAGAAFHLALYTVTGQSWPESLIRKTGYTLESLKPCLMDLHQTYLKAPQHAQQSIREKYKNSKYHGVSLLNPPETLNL
K4F: 5.04
F9R: 0.787
D8E: 5.71
D12G: 6.4
K4R: 5.99
F9D: -0.382
V3L: 4.33
T11G: 5.98
T11V: 5.59
R5G: 1.73
L7E: -0.0958
R5Y: 1.05
R6E: 4.68
F9S: 0.376
D8V: 5.28
E10I: 6.1
D8H: 6.08
D12N: 6.25

Series 2
Target: UBE2U UBC core domain (UniProt Q5VVX9)
Method: yeast two-hybrid
Medium: yeast
Notes: mostly zero background
Reference: not given
Direction: higher = stronger interaction
Measurement: lacZ reporter activity
B1: TRIM54 RING domain (UniProt Q9BYV2); chain SMDNLEKQLICPICLEMFSKPVVILPCQHNLCRKCANDVFQASNPLWQSRGSTTVSSGGRFRCPSCRHEVVLDRHGV
B2: MKRN2 RING domain (UniProt Q9H000); chain FAFQASQDKVCSICMEVILEKASASERRFGILSNCNHTYCLSCIRQWRCAKQFENPIIKSCPECRVISEFVIPSV
B3: RNF166 RING domain (UniProt Q96A37); chain GDSGLEAQYTCPICLEVYHRPVAIGSCGHTFCGECLQPCLQVPSPLCPLCRLPFDPKKVDK
B4: TRIM22 RING domain (UniProt Q8IYM9); chain VKVDIEKEVTCPICLELLTEPLSLDCGHSFCQACITAKIKESVIISRGESSCPVCQTRFQPGNLRP
B5: RNF31 RING domain (UniProt Q96EP0); chain AFLRRLLAQECAVCGWALPHNRMQALTSCECTICPDCFRQHFTIALKEKHITDMVCPACGRPDLTDDTQLL
Construct (chain): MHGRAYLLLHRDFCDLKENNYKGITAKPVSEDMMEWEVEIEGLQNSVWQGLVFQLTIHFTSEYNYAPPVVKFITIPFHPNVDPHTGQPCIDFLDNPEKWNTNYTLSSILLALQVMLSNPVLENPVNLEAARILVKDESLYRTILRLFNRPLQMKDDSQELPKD
LDAASGHPLVCPLCHGQYERPCLLDCFHDFCTGCLRGRATDGRLSCPLCQHQTLVKGPSG (Rnf207 RING domain (UniProt Q3V3A7)): 8840
B1 (TRIM54 RING domain): 16400
RYRQMEERITCPICIDSHIRLVFQCGHGACAPCGSALSACPICRQPIRDRIQIF (MIB2 RING domain (UniProt Q96AX9)): 0
B2 (MKRN2 RING domain): 0
QVQSRTKIEECVVCSDKKAAVLFQPCGHMCACENCANLMKKCVQCRAVVERRVPFI (MIB1 RING domain (UniProt Q86YT6)): 0
B3 (RNF166 RING domain): 15700
FVKTVEDKYKCEKCHLVLCSPKQTECGHRFCESCMAALLSSSSPKCTACQESIVKDKVF (TRAF3 RING domain (UniProt Q13114)): 0
B4 (TRIM22 RING domain): 13500
B5 (RNF31 RING domain): 7420

Series 3
Target: NFE2L2, bZIP domain (human)
Method: DHFR protein complementation
Medium: yeast
Notes: single substitutions, most at no-binding floor
Reference: wild-type JUN-FOS pair
Direction: higher = stronger binding
Measurement: binding fitness
Starting sequence: JUN, bZIP domain (human); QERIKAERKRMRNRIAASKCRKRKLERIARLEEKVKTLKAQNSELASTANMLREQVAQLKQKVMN; partner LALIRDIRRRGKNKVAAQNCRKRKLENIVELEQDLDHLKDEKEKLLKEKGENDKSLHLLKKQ
K36G: -1.41 natural log
K39G: -1.46 natural log
N42M: -1.5 natural log
S47F: -1.27 natural log
S47L: -1.24 natural log
L59S: -1.5 natural log
S43C: -1.46 natural log
A40N: -1.49 natural log
I28L: -1.47 natural log
A29S: -1.44 natural log
K34S: -1.37 natural log
E54Y: -1.4 natural log
A29F: -1.46 natural log
K36M: -1.45 natural log
L31C: -1.42 natural log
A46H: -1.38 natural log

Series 4
Target: Histone acetyltransferase KAT6A, both winged helices, GST fusion (KAT6A, Homo sapiens, UniProt Q92794, residues 1-181)
Method: protein binding microarray
Molecule type: double-stranded DNA, one strand shown
Medium: in vitro
Concentration: not given
Notes: 8-mer, flanks averaged, mean of 2 arrays, mostly near background
Reference: not given
Direction: higher = stronger binding
Measurement: E-score
Residues (chain): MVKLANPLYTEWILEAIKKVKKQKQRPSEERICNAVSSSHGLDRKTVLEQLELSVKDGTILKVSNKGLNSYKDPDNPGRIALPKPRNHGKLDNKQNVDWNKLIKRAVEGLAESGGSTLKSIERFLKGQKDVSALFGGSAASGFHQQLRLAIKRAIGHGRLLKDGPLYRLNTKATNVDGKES
AGAGCGGG: 0.193
ATCGCGAC: 0.256
ATCAAGGA: -0.0862
ACTTCACG: 0.0773
ATACATGA: -0.00225
ACAGTAGG: -0.153
CTCGCCGA: 0.216
ACGACCAC: -0.182
CACAAGGA: -0.0893
AGAAAAGC: -0.0375
GGCTTGAA: 0.011
CGCGCATC: 0.365
AAGCAATT: 0.0806
AATTACCC: -0.0876
ACATTACT: -0.0624
AGCGTATA: 0.1
CAGTATTA: -0.142

Series 5
Target: Interferon regulatory factor 5, full length, phosphomimetic (IRF5, Homo sapiens, UniProt Q13568-2, residues 1-514, S451D/S453D/S456D/S462D)
Method: protein-binding microarray
Molecule type: double-stranded DNA, one strand shown
Medium: in vitro
Concentration: 940 nM top
Notes: 60-bp whole probe
With: salmon DNA 0.4 mg/ml
Reference: random background probes
Direction: higher = stronger binding
Measurement: fitted relative affinity
Shared flanks, not repeated: GCCTAGCAC … GTCTTGATTCGCTTGACGCTGCTG
TTGTTTTTCATTATTGTCTCGTGCTAG: 1.92 z-score
TCAGGTTTACCAGATCATCTGGTGCTA: 0.0384 z-score
TTAAGTTTCGGGACTGGGTTAGTGCTA: 7.63 z-score
TTAGGTTTCGGTCGCGGTTAGTGCTAG: 14.8 z-score
TCCAATTCTCTTTTCACTTTGTGCTAG: 2.13 z-score
TTAGAACTGAGTATCGATTCGTGCTAG: 3.53 z-score
GACGGTATCCTTCTCCCGACGTGCTAG: 1.06 z-score
GACGCTCTCCTTTTCCTGACGTGCTAG: 1.01 z-score
GACGGAGTGGGGACTGGGGACGTGCTA: -0.129 z-score
CACGATTTCGGGTTTCGAGACGTGCTA: 2.16 z-score
GACGGACTGGGACTGGCGACGTGCTAG: -0.733 z-score
TCACGTCTGATTTTGCTACTGTGCTAG: 0.389 z-score

Series 6
Target: ABI1, truncated, D143A, DHFR fusion (Arabidopsis thaliana)
Method: DHFR PCA, deep sequencing
Medium: yeast
Notes: methotrexate growth selection, single substitutions
With: (+)-ABA 0.39 µM
Reference: wild-type fitted maximum
Direction: higher = stronger binding
Measurement: relative binding score
Starting sequence: PYL1, truncated, DHFR fusion (Arabidopsis thaliana); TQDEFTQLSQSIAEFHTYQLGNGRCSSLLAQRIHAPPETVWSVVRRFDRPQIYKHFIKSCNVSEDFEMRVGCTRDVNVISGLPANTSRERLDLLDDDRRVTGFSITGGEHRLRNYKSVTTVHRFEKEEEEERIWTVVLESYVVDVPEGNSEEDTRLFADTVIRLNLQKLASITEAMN; partner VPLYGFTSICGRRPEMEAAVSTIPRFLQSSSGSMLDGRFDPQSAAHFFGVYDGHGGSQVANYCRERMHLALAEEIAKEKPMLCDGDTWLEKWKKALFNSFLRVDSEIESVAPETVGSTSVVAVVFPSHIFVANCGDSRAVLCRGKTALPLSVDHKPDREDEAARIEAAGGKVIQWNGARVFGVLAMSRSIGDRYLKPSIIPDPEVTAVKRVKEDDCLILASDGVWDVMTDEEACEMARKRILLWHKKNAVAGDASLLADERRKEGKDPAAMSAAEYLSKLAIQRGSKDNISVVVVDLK
D48P: -5.56%
I52L: 48.6%
H110C: 17.7%
F157M: 19.1%
N85T: 75.9%
L156R: 10.9%
Q2D: 48%
E131F: 23.6%
S27F: -4.05%
T73E: 51.2%
R123A: 66.5%
Y141T: -5.87%
V161S: 19.3%
S11W: 32.5%
E4W: 34.5%

Series 7
Target: RING finger protein unkempt homolog, zinc fingers 1-6, GST-SBP tag (UNK, Homo sapiens, UniProt Q9C0B0, residues 30-357)
Method: RNA Bind-n-Seq
Molecule type: RNA
Medium: in vitro
Concentration: not given
Notes: RNA with constant flanks, ends assumed
Reference: input RNA pool
Direction: higher = stronger binding
Measurement: bound/input enrichment
Shared flanks, not repeated: GGGAGUUCUACAGUCCGACGAUC … CAACAGAGGAUUGAGCAUCA
Construct (chain): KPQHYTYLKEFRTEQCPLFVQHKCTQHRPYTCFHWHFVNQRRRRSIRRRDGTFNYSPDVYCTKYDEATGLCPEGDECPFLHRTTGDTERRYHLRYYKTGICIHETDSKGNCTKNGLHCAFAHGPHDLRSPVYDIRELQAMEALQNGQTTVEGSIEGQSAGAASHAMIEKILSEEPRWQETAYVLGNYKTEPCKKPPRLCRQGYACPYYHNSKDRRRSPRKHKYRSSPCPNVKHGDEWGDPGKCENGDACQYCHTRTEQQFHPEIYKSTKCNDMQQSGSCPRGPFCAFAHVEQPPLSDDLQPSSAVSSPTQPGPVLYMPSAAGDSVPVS
CCAUUUAAAGACCGAGUCACCUGGGCUGGGGACCUUGACAAGAAAGAUGCAUCAAUCAAUACCGAAAAUAUUCAGGCUGUUCACAAUGGCACCUAUAUCUGCGAUGUCAAAAAUCCUCCU: 0.419 ratio
UGCGUCCUUUUUCGUUUUUCGGAUGAUGCCUUCAAUACUACCUUUAUUUCCACCACCGGAACCGACUUCAAGAUCAAAACAGUUGAAUUACAAGGAAAGAAGAUCAAGCUACAGAUAUGG: 0.174 ratio
GAAUUGAUUAAAGAGAAACUCAUUUUUCCCUACGUGGAAUUGGAUCUACAUAGCUAUGAUUCCGGCACCGAGAAUCGUGAUGCCACCAACGACCAAGUCACCAAGGAUGCUGCAGAAGCU: 0.261 ratio
CACCUACUAACCUCACUGUCCUACAAAGUUCGAAUGCAAGCACUGAAAUGUUUCUCAGUUUCCGCUUUUGAAAACCCCCAGGUAUCGAUGACCCUGGUAAAUGUUUUGGUUGAUGGAGAA: 0.233 ratio
GACCUAUAUCACAAAGGCCUCCUUAAAUUUUCACUGGAUGCCGUAUCUCUGAAGGAUACUCCCGUUAUGCUGGUUGUUGACAUGUCAAAGCCUUGGACUGCUUUGGAUUCUUUACAGAAA: 0.527 ratio
AAAAUUUUUGCCUUUGCCAACUCACUAGUGGAACUUCUGGCUGUGGGGUUAGAAACCUUUAACCGAGCACGCUAUAGGCAGUUUGUGAAGCGAAUUGGUUAUAUGAUCAGGAUGACUCUU: 0.341 ratio
CUUCAGCAAGGUGGCCGCAUGCUCCCUGAGCUCUUCCAGUGUCACGGCUCUGCAGAUAACCCCGUUCUGCAUGCUUGGGGCAAGGAGACAAACUCAAAACUGAAAUCUCUAGGAGUGAGC: 0.0992 ratio
UGUUACUCUGAUGGCACCGCAGUUCAUGAAAGCCACACAAAAAAUGCUUCAUUUUACGCCCGCUCUUCAACUCUCUACUACCAAAUAGAUAGUCACAUCCCAGGAACUCCUAGCCAGCUC: 0.209 ratio
AAACAUGGAUGUGGUGGCAUAACUUUCGGACUCUGUGUGACUAUAGCAAGAGAAUUGCAGCCGGUAAGUCCACAAGGGUUCUGAGAUAUGAGCGGCCUCCUAGAAAUGAGAAUCAACAGG: 0.198 ratio
CCUGAAAAUGUCUAUAGUGUGCACUUCGAAAAAGAACAUAAAGCUGAGAAAGUCCCAGCAGCCGCCAACUACAUUAUGAAAAUACACAAUUUUACUAGCAAAUGCCUCUACUGUAAUCGC: 5.53 ratio
UUCAUUCAUGCUAAUGUUGACAUUGACUUAAUUAUCACAGAAGAACCUGAGAUUGGCAAUACCGAAAAACCAGUAGAAAUUUUUCAUAUAAUAGAACAUUUUUGUCUUGGUAGAAGACGC: 3.76 ratio

Some of these lines once more (series 6):
D48P: -5.56%
I52L: 48.6%
H110C: 17.7%
F157M: 19.1%
N85T: 75.9%
L156R: 10.9%
Q2D: 48%
E131F: 23.6%
S27F: -4.05%
T73E: 51.2%
